Assay results of several laboratories.
Compare with care: the assays were run in different laboratories. Numbers after ± are the reported error.

N=C(N)NCCC[C@@H]1NC(=O)[C@H](CCCCNC(=O)CC[C@H](NC(=O)[C@H]2O[C@@H](CNC(=O)c3ccc(F)cc3)[C@H](O)[C@@H](O)[C@H]2O)C(=O)NCCCC[C@@H]2NC(=O)[C@@H](Cc3ccc(O)cc3)NC(=O)[C@H](CC(=O)O)NC(=O)CNC(=O)[C@H](CCCNC(=N)N)NC2=O)NC(=O)[C@@H](Cc2ccc(O)cc2)NC(=O)[C@H](CC(=O)O)NC(=O)CNC1=O [fluorine-18 labelled] gave a tissue uptake of 3.4 ± 0.58 %ID/g (small-animal PET; female athymic nude mice, U-87 MG xenograft, kidney; intravenous, 3.7 MBq, 60 min).
The tissue uptake of O=C([O-])CN1CCN(CC(=O)[O-])CCN(CC(=O)[O-])CCN(CC(=O)[O-])CC1.[64Cu+2] is reported as 0.48 %ID/g (healthy athymic nude mice, spleen; intravenous, 24 h).
The tissue uptake of NC12CNCCNCC(NCc3ccc(CNC(=O)CCCC(=O)NCc4ccc(-c5nncnn5)cc4)cc3)(CNCCNC1)CNCCNC2.[64Cu+2] is reported as 0.84 ± 0.1 %ID/g (athymic nude mice SW1222 xenograft, heart; 12 h post injection, 24 h accumulation interval, together with: huA33-TCO pretargeting).
With CN1C(=O)[C@@H](Cc2ccc(O)c(I)c2)NC(=O)CNC(=O)[C@H](Cc2ccc3ccccc3c2)NC(=O)[C@H](CCCNC(=N)N)NC(=O)[C@H]1CCCNC(=O)c1ccc(CNC(=O)CN2CCN(CC(=O)O)CCN(CC(=O)O)CCN(CC(=O)O)CC2)cc1 [lutetium-177 labelled] the tissue uptake was 1.27 ± 0.43 %ID/g (item: 177Lu radioactivity; female CB-17 SCID mice, Daudi xenograft, spleen; intravenous, 0.16 nmol per mouse, 96 h).
With CCCC[C@H](NC(=O)CNC(=O)CNC(=O)CN1CCN(CC(=O)O)CCN(CC(=O)O)CC1)C(=O)N[C@H]1CC(=O)NCCCC[C@@H](C(N)=O)NC(=O)[C@H](Cc2c[nH]c3ccccc23)NC(=O)[C@H](CCCNC(=N)N)NC(=O)[C@@H](Cc2ccccc2)NC(=O)[C@H](Cc2c[nH]cn2)NC1=O [gallium-67 labelled] the tissue uptake was 0.73 ± 0.26 %ID/g (female C57 mice, B16/F1 melanoma, muscle; intravenous, 0.037 MBq, 0.5 h).
The tissue uptake of CCCC[C@@H]1NC(=O)[C@@H](NC(=O)[C@H](CCC(=O)O)NC(=O)CNC(=O)CN2CCN(CC(=O)O)CCN(CC(=O)O)CCN(CC(=O)O)CC2)CCCCNC(=O)C[C@@H](C(N)=O)NC(=O)[C@H](C(C)C)NC(=O)[C@@H]2CCCN2C(=O)[C@H](CCCNC(=N)N)NC(=O)CNC(=O)[C@H](Cc2c[nH]c3ccccc23)NC(=O)[C@H](CCCNC(=N)N)NC(=O)[C@@H](Cc2ccccc2)NC(=O)[C@H](Cc2c[nH]cn2)NC(=O)[C@H](CCC(=O)O)NC1=O [gallium-67 labelled] is reported as 0.19 ± 0.11 %ID/g (normal C57 mice, blood; intravenous, 0.037 MBq/mouse, 4 h).
For CC(F)C(=O)NC[C@@H]1O[C@H](C(=O)NCCCC[C@@H]2NC(=O)[C@@H](Cc3ccc(O)cc3)NC(=O)[C@H](CC(=O)O)NC(=O)CNC(=O)[C@H](CCCNC(=N)N)NC2=O)[C@H](O)[C@H](O)[C@H]1O (stereo partly shown) [fluorine-18 labelled], the tissue uptake was 0.12 ± 0.01 %ID/g (small-animal PET; female athymic nude mice, U-87 MG xenograft, liver; intravenous, 3.7 MBq, 120 min).
The tissue uptake of CC(C)CC(CC(C)C)NC(=O)[C@H](Cc1cnc[nH]1)NC(=O)CNC(=O)[C@@H](NC(=O)[C@H](C)NC(=O)[C@H](Cc1c[nH]c2ccccc12)NC(=O)[C@H](CCC(N)=O)NC(=O)[C@@H](Cc1ccccc1)NC(=O)COCC(=O)Nc1ccc(CNC(=O)CN2CCN(CC(=O)O)CCN(CC(=O)O)CCN(CC(=O)O)CC2)cc1)C(C)C [gallium-68 labelled] is reported as 12.1 ± 3.72 %ID/g (male NRG mice, PC-3 xenograft, tumour; intravenous, 120 min).
With N=C(N)NCCC[C@H](NC(=O)[C@@H]1CSSC[C@H](NC(=O)[C@H](Cc2ccc3ccccc3c2)NC(=O)[C@H](CCCNC(=N)N)NC(=O)[C@H](CCCNC(=N)N)NC(=S)Nc2ccc(C[C@H]3CN(CC(=O)O)CCN(CC(=O)O)CCN3CC(=O)O)cc2)C(=O)N[C@@H](Cc2ccc(O)cc2)C(=O)N[C@@H](CCCNC(N)=O)C(=O)N[C@@H](CCCCN)C(=O)N[C@H](CCCCN)C(=O)N2CCC[C@H]2C(=O)N[C@@H](Cc2ccc(O)cc2)C(=O)N[C@@H](CCCNC(=N)N)C(=O)N[C@@H](CCCNC(N)=O)C(=O)N1)C(N)=O [copper-64 labelled] the tissue uptake was 4.59 ± 0.9 %ID/g (female athymic nude mice, spleen; intravenous, 50 µCi, 4 h).
N=C(N)NCCC[C@H](NC(=O)CON=C[C@H](F)[C@@H](O)[C@H](O)[C@H](O)CO)C(=O)NCC(=O)N[C@@H](CC(=O)O)C(=O)O [fluorine-18 labelled] gave a tissue uptake of 0.43 ± 0.05 %ID/g (nude mice U-87 MG tumour, blood; intravenous, 0.5 h).

A few entries again:
The tissue uptake of NC12CNCCNCC(NCc3ccc(CNC(=O)CCCC(=O)NCc4ccc(-c5nncnn5)cc4)cc3)(CNCCNC1)CNCCNC2.[64Cu+2] is reported as 0.84 ± 0.1 %ID/g (athymic nude mice SW1222 xenograft, heart; 12 h post injection, 24 h accumulation interval, together with: huA33-TCO pretargeting).
